Measurements gathered from unrelated publications.
Numbered parts are unrelated; each lists some results of a single study.
Chain of UniProt Q08881 (whole entry, looked up): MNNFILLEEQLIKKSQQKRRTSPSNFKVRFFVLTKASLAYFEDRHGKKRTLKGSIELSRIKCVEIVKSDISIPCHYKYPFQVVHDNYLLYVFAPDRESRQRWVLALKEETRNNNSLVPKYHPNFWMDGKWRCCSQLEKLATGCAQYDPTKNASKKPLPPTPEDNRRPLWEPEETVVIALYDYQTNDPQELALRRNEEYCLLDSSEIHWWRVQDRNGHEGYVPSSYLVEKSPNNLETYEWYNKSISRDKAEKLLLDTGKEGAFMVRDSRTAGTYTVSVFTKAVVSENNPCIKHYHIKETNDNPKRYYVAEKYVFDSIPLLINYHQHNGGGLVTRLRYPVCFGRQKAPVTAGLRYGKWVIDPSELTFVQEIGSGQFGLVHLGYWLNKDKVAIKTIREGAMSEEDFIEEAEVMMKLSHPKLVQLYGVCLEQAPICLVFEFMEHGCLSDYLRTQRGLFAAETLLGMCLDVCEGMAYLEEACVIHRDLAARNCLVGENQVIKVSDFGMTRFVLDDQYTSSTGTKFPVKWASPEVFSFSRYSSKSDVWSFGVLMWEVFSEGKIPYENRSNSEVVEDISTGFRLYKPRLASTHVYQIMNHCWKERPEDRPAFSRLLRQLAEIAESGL
Chain of UniProt P42684 (whole entry, looked up): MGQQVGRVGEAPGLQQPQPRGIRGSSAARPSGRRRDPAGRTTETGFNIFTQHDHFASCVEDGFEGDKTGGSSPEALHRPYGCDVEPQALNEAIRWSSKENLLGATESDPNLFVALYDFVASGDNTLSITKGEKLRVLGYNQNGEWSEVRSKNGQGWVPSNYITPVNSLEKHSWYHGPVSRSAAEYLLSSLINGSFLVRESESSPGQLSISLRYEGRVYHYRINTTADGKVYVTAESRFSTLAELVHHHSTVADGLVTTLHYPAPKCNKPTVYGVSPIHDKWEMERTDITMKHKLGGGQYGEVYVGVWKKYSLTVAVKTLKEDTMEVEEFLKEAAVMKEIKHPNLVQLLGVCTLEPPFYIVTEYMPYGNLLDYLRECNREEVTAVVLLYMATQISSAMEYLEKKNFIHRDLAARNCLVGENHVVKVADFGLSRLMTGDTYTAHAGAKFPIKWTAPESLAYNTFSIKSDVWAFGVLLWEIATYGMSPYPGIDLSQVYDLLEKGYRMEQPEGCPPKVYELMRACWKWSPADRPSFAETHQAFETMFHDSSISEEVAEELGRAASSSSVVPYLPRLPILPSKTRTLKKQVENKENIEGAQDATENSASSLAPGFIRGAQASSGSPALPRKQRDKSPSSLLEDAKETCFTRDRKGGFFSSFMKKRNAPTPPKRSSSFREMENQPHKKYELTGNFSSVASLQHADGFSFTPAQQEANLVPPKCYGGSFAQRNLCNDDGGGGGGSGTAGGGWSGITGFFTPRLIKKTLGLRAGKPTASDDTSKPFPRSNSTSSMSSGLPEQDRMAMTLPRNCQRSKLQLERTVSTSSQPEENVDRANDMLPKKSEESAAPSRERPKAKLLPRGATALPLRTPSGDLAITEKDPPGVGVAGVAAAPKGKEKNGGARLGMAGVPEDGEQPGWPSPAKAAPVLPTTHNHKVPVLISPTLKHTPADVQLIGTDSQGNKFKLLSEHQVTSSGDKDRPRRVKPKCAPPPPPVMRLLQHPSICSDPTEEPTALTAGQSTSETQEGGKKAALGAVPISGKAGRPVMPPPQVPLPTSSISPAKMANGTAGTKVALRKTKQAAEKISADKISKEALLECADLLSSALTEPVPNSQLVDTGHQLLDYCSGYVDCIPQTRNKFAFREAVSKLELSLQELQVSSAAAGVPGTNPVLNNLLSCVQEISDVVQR

Sample 1
Target: Ras GTPase-activating protein-binding protein 1, C-terminal RGG region (G3BP1, Homo sapiens, UniProt Q13283)
Chain of UniProt Q13283 (whole entry, looked up): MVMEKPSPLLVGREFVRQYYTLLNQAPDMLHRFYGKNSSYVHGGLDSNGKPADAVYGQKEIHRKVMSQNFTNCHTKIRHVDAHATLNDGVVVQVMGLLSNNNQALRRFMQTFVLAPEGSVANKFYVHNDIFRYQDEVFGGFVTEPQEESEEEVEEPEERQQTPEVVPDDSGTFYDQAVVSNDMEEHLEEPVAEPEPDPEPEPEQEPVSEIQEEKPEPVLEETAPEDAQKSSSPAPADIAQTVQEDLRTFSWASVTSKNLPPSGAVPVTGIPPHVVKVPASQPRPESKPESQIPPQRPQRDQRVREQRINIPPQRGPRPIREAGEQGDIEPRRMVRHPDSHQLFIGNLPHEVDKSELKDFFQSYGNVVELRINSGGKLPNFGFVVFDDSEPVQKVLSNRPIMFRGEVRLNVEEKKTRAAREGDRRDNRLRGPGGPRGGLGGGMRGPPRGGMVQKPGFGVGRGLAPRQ
Method: RNA Bind-n-Seq
Form: RNA
Matrix: in vitro
Tested at: 1 µM
Setting: whole 134-nt RNA, ends assumed
Added: 150 mM KCl
Baseline: input library
Reading: higher = stronger binding
Endpoint: log2 enrichment
All sequences stand within: GGGAGUUCUACAGUCCGACGAUC … UGGAAUUCUCGGGUGUCAAGG
CAAGUCCUGUGCUACACAUCGUAUGUACCGAAUCGGGCCCGGGCCCGGGGCCCGGGAAAGUAUUAUGUUACGCCGUUCGGAUCUGCACUU: -2.27
UCAAGUCCUGUGCUACACAUCGUAUGUACCGAAUCGGGGAGGGGUGGGGUGGGGAAAGUAUUAUGUUACGCCGUUCGGAUCUGCACUUCC: 3.3
UGUCCCAGGGAACGCCGGUGCAGAUGUGCUUCUUGUGGGCUCAGAGGCCUUCGUGCUGCUGGACGGGCAGGAGCUGACGCCUCGCUGGAC: -1.62
GUCCUGUGCUACACAUCGUAUGUACCGAAUCGGGUUUGGGUUUUUGGGAAAAAAAGGGAAAGUAUUAUGUUACGCCGUUCGGAUCUGCAC: -0.216
CACAGACAACACGCACCCACACAGACACAGAGGGAAGGGGUUGGGAUGGGGACAGGGUGCACAGCAAAGCGGGGUAGGACCCCAGCCCCU: -0.147
AGUCCUGUGCUACACAUCGUAUGUACCGAAUCAAACCCAAAUUUAAAUUUUUUUAAAAAAGUAUUAUGUUACGCCGUUCGGAUCUGCACU: -1.22
CUGUGCUACACAUCGUAUGUACCGAAUCGGGGCCCCCCCGGCCCCCCCGGCCCCCCCGGGGAAAGUAUUAUGUUACGCCGUUCGGAUCUG: -1.98
CAAGUCCUGUGCUACACAUCGUAUGUACCGAAUCGGGAGGGUUUGGGUUUUUGGGAAAGUAUUAUGUUACGCCGUUCGGAUCUGCACUUC: 1.26

Sample 2
Target: Hepatocyte nuclear factor 3-beta, forkhead domain (FOXA2, Homo sapiens, UniProt Q9Y261, residues 142-269)
Method: protein-binding microarray
Form: double-stranded DNA, one strand shown
Matrix: in vitro
Tested at: not given
Setting: k-mer, scored over probes, only values ≥0.25
Reading: higher = stronger binding
Endpoint: E-score
Target sequence (chain): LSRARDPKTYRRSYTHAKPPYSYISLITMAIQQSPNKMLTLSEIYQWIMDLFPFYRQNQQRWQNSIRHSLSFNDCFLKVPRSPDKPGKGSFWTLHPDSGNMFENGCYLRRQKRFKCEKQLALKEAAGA
TGTGGAAA: 0.303
ATCAGTCA: 0.252
AATTACAA: 0.344
GTACAACA: 0.274
GATTAAAA: 0.262
CATACATG: 0.361
CTGTTTGA: 0.276
ATGGCAAC: 0.265

Other studies, line by line
C[C@@]1(Cc2ccc(C#N)cc2)C(=O)N(c2cc(Cl)cc(Cl)c2)c2ncc(C(=O)NC3(c4nc(C5CCC5)no4)CC3)n21  remaining binding (ABL2 (Homo sapiens, UniProt P42684); cell-free assay, competition with immobilised ligand; 1 µM): 78%
N#CC(c1ccnc(NCCc2cccnc2)n1)c1nc2ccccc2s1 (stereo not shown)  remaining activity (ITK (Homo sapiens, UniProt Q08881); enzyme activity, inhibitor; 0.5 µM; baseline: control): 98.8%
AP2B1 (Homo sapiens, UniProt P63010)  cross-linked residues (AP2M1 (Homo sapiens, UniProt Q96CW1); cross-linking MS; cells; added: BSPNO): K322 to K281
